Measurements from different studies.
Compare with care: the assays were run in different laboratories.

SMILES	assay	test system	conditions	endpoint	result
O=C1Nc2cc3[nH]nc(-c4ccncc4)c3cc2CN1Cc1ccccc1	CTCAE v4.03	human, relapsed or refractory advanced solid tumours	intravenous, 6.4 mg/kg	patients with photopsia	11%
N[C@@H]1c2ccccc2OC12CCN(c1cnc3c(N4CCCc5ncccc54)n[nH]c3n1)CC2	item: anemia	human advanced or metastatic solid tumours	oral, dose not given, phase Ia	patients with serious adverse event	3.6%
NC(=O)[C@H]1CCN(c2ncnc(N)c2F)C[C@@H]1N1CCC[C@@H](Nc2cc(Cl)cc(C(F)(F)F)c2)C1=O		human patients	oral, dose not given, grade ≥3	patients with hypocalcemia	5%
COc1ccc(-c2c(-c3ccc(C#N)c(F)c3)nc(N3CCC(N)CC3)n(C)c2=O)cc1F	item: pulmonary hemorrhage	human patients	oral, dose not given, dose escalation	patients with serious TEAE	0%
Cn1nc(NS(C)(=O)=O)c2c(Cl)ccc(-n3c([C@H](Cc4cc(F)cc(F)c4)NC(=O)Cn4nc(C(F)F)c5c4C(F)(F)[C@@H]4C[C@H]54)nc4nc(OCCC(F)(F)F)ccc4c3=O)c21	item: total cholesterol grade 2 increase	human	300 mg once daily, powder in bottle	patients with laboratory abnormality	13%
CC[C@H](C)CCCCC(=O)N[C@@H](CCN)C(=O)N[C@H](C(=O)N[C@@H](CCN)C(=O)N[C@H]1CCNC(=O)[C@H]([C@@H](C)O)NC(=O)[C@H](CCN)NC(=O)[C@H](CCN)NC(=O)[C@H](CC(C)C)NC(=O)[C@@H](Cc2ccccc2)NC(=O)[C@H](CCN)NC1=O)[C@@H](C)O		human, critically ill adults	intravenous, dose not given, median 9 d, RIFLE criteria	patients developing AKI	~40%
O=C(c1ccc(F)c(F)c1Nc1ccc(I)cc1F)N1CC(O)([C@@H]2CCCCN2)C1		human patients	oral, dose not given, dose escalation, tablet	patients with treatment-related SAE	6%
Cc1cn([C@H]2O[C@@H](CO[P@@](=O)(N[C@@H](C)C(=O)OC(C)C)Oc3ccccc3)[C@H](O)[C@H]2F)c(=O)[nH]c1=O	item: grade 1/2	human	10 mg	patients with decreased platelets	0%
Cn1cncc1-c1c(F)cncc1NC(=O)c1c(N)nn2cc(F)cnc12		human patients	oral, up to 40 mg once daily	patients grade ≥3 Lymphocyte count decrease	0%
CN(C)C(=O)c1cc2cnc(Nc3ccc(N4CCNCC4)cn3)nc2n1C1CCCC1	item: Reproductive toxicity, AESI	human, HR+/HER2− advanced breast cancer	oral, dose not given, grade 3, CTCAE v4.03	patients with adverse event	0%
COc1ncnn2ccc(-c3cnc4nc(C)n(Cc5nnc([C@@H](C)F)o5)c4c3)c12		human	oral, dose not given, grade 2	patients with diarrhea	42.9%
C=CC(=O)Nc1cc(Nc2nccc(Nc3cc(Cl)c(F)cc3C(C)(C)O)n2)c(OC)cc1N1CC[C@@H](N(C)C)C1		human patients	oral, 400 mg, treatment-emergent adverse events	patients with paronychia	40%
CCN(Cc1nc2c(N)nc3cc(-c4cc[nH]n4)ccc3c2[nH]1)C(C)=O	grade 1-2 leukocytosis	human	intratumoral, dose not given	patients with adverse event	42%
C[C@@H]1OC(=O)NN=C1c1ccc(-c2ccc(F)cc2)c(C(F)(F)F)c1	phase I trial, item: Diarrhoea worst grade 1	human patients	20 mg loading then 1 mg daily	patients with adverse event	0%
CCS(=O)(=O)Nc1ccc(Oc2ccc(F)cc2F)c(-c2cn(C)c(=O)c3[nH]ccc23)c1	item: Pneumonia	human, relapsed/refractory AML	oral, dose not given, trial, together with: alone or with venetoclax	patients with fatal adverse event	5%
CCN(CCO)CCCC(C)Nc1ccnc2cc(Cl)ccc12 (centres unmarked)		human, newly diagnosed glioblastoma	oral, 200 mg/dose, dry skin grade 1, with RT and TMZ	patients with adverse event	33%
C[C@]1(O)C[C@@](N)(c2ccc(-c3nc4n(c3-c3ccccc3)COc3ccncc3-4)cc2)C1		human, advanced or metastatic solid tumours	intermittent, dose escalation total, any grade	patients with Pruritus TEAE	57.1%
Cn1ncc(-c2nc(N[C@H]3CC[C@H](N)CC3)ncc2Cl)c1CC1CC1	item: treatment-related Hypokalemia	human patients phase I	dose not given	patients with adverse events	16.1%
CCN1[C@@H](C(=O)NC23CCC(C(=O)O)(CC2)CC3)[C@H](c2cccc(Cl)c2F)[C@]2(C(=O)Nc3cc(Cl)ccc32)C12CCCCC2	item: any-grade treatment-related nausea	human, advanced solid tumours	oral, dose not given, all sample A patients	patients with adverse event	14.3%
COc1c(C)cnc(Cn2cc(C#CCCOP(=O)(O)O)c3c(Cl)nc(N)nc32)c1C	item: diarrhea	human, advanced solid tumours	concentration not given, at least possibly drug-related	patients with adverse event	44%
